Experimental data from different studies.
A part holds a random share of what one study measured. Positions count from the first letter of the parent shown.

Sample 1
Target: CCNB3, cyclin fold, Cln2 fusion (human)
Method: yeast growth competition, sequencing
Medium: yeast
Setting: weak parent motif
Reference: not given
Direction: higher = stronger binding
Starting sequence: MASTL docking peptide (human); PMIAKNLMCELDE
Variant	normalised enrichment score
M8C	-0.248
C9A	0.0715
M8G	-0.172
C9N	-0.344
L11I	0.181
A4Q	-0.0855
N6T	0.223
E10Q	0.322
M2C	-0.234
L7P	-0.156
K5D	-0.11
N6E	0.00507
L7T	-0.282
K5W	0.305
L7D	-0.114
N6M	0.177
C9D	-0.295
A4G	-0.133
M2G	0.00762
I3R	0.018
C9E	-0.45
A4K	0.241
I3N	-0.0422
L11W	0.275
M2W	-0.193

Sample 2
Target: Ras GTPase-activating protein-binding protein 1, full length (G3BP1, Homo sapiens, UniProt Q13283)
Sequence of UniProt Q13283 (whole entry, looked up): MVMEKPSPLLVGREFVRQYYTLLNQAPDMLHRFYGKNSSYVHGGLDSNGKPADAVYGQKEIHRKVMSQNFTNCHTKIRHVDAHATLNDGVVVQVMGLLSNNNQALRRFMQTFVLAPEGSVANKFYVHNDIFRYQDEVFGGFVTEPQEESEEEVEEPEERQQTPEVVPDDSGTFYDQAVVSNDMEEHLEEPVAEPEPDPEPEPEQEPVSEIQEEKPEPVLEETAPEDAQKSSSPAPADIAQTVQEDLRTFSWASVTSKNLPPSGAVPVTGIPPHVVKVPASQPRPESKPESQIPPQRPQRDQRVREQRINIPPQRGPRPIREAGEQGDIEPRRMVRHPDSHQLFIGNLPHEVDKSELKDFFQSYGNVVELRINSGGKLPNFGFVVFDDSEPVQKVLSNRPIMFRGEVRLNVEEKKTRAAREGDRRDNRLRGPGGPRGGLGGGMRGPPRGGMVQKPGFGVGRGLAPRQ
Method: RNA Bind-n-Seq
Molecule type: RNA
Medium: in vitro
Tested at: 200 nM
Setting: whole 134-nt RNA, ends assumed
Together with: 150 mM KCl
Reference: input library
Direction: higher = stronger binding
Strand	log2 enrichment
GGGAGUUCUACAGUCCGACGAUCCAAGUCCUGUGCUACACAUCGUAUGUACCGAAUCGGUUUGGGGUUUGGGGUUUGGAAAGUAUUAUGUUACGCCGUUCGGAUCUGCACUUCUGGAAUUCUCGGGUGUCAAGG	-0.345
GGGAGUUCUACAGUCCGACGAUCCACAGACAACACGCACCCACACAGACACAGAGGGAAGGGGUUGGGAUGGGGACAGGGUGCACAGCCGGGCGGGGUAGGACCCCAGCCCCUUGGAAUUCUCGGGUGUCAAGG	1.85
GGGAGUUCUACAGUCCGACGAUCGUCCUGUGCUACACAUCGUAUGUACCGAAUCGGGUUUUUGGGUUUUUGGGUUUUUGGGAAAGUAUUAUGUUACGCCGUUCGGAUCUGCACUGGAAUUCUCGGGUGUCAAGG	-0.431
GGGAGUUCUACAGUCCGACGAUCUGCGAGGUGGAUUUUGUUUAUUUUUUUAGCUCAUUUCCAGGGGUGGGAAUUUUUUUUUAAUAUGUGUCAUGAAUAAAGUUGUUUUUGAAAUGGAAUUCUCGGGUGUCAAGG	-0.418
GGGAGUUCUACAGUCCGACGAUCCACAGACAACCCGCACCCACACAGACACAGAGGGAAGGGGUUGGGAUGGGGACAGGGUGCACAGCAGGGCGGGGUAGGACCCCAGCCCCUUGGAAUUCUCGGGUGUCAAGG	2.04
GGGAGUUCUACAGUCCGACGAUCAGUCCUGUGCUACACAUCGUAUGUACCGAAUCAAAUUUAAACCCCCCCAAAUUUAAAAAAGUAUUAUGUUACGCCGUUCGGAUCUGCACUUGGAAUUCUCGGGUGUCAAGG	-0.203
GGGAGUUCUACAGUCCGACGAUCUGGCCCUGGUGGCAUGCGGGGAGGAAGAGGUGGCCUCCUGGAUCGUGGUGGUCCCGGUGGAAUGUUCAGAGGUGGCCGUGGUGGAGACAGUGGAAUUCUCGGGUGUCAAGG	0.143
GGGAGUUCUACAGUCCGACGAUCUAACUUUAGAGGAGGAUCUGAUGGACAUGGCAGUGGACGUGGAUUUGGGGAUGGCUAUAAUGGGUAUGGAGGAGGACCUGGAGGUGGCAAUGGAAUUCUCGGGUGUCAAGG	0.425
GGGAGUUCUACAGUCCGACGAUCUGGGAGGUGGAUUUUGUUUAUUUUUUUAGCUCAUUUCCAGGGGUGCGAAUUUUUUUUUAAUAUGUGUCAUGAAUAAAGUUGUUUUUGAAAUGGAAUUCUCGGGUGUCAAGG	0.772
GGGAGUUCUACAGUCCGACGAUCGCAGGAAGUAACAACAAAUGGAAAUGCUUCGGAUAGUGGCAGGGGUGGGGGUUGCUAAGGAAAGGGUGGGAUGGGAGUGGGUAAAGAGUUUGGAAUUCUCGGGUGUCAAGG	1.07
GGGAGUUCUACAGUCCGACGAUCCUCAAGUCCUGUGCUACACAUCGUAUGUACCGAAUCGGAAGGGAAGGGGAAGGAAAGUAUUAUGUUACGCCGUUCGGAUCUGCACUUCCAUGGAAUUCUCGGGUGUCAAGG	-0.154
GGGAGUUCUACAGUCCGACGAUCUCCUGUGCUACACAUCGUAUGUACCGAAUCGGGGUUUGGGGUUUGGGGUUUUUUUGGGGAAAGUAUUAUGUUACGCCGUUCGGAUCUGCAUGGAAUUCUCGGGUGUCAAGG	0.731
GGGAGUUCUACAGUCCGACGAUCUUCCUCAAGUCCUGUGCUACACAUCGUAUGUACCGAAUCGGGAGGAGGAGGAAAGUAUUAUGUUACGCCGUUCGGAUCUGCACUUCCAGCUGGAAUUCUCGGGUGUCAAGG	-0.661
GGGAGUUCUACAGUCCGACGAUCAAGUCCUGUGCUACACAUCGUAUGUACCGAAUCGGUUUGGUUUUUUUGGUUUUUGGAAAGUAUUAUGUUACGCCGUUCGGAUCUGCACUUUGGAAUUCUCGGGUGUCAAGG	-1.3

Sample 3
Target: Interferon regulatory factor 5, full length, phosphomimetic (IRF5, Homo sapiens, UniProt Q13568-2, residues 1-514, S451D/S453D/S456D/S462D)
Method: protein-binding microarray
Molecule type: double-stranded DNA, one strand shown
Medium: in vitro
Tested at: 940 nM top
Setting: 60-bp whole probe
Together with: salmon DNA 0.4 mg/ml
Reference: random background probes
Direction: higher = stronger binding
All sequences stand within: GCCTAGCAC … GTCTTGATTCGCTTGACGCTGCTG
Strand	fitted relative affinity
TTAGGTCTCGGTTACGGTTAGTGCTAG	5.24 z-score
CCAAGTCTTGTTTTACAATTGTGCTAG	0.385 z-score
TTAGATATCAGTATCGATTTGTGCTAG	4.14 z-score
TTTGGACTGGGTCTCGGTTAGTGCTAG	1.48 z-score
TTAGACATCAGTTTCGATTAGTGCTAG	7.67 z-score
TTATGTTTCGACTATCGGTTAGTGCTA	4.95 z-score
GACGGACAGCTTCTCCTGACGTGCTAG	-0.664 z-score
TTAGGTATCGGGACTGGGTTTGTGCTA	4.52 z-score
GACGGACTGGACACTAGGGACGTGCTA	-0.384 z-score
TCAGAATTGAAAATTAGTACTGTGCTA	-0.568 z-score
GGTGCTCTGCAGCTCAGGCAGTGCTAG	-1.05 z-score
TTAGGTATCCTGATCCTTTAGTGCTAG	-0.553 z-score
CCTTCCATCACTTTCCACTTGTGCTAG	2 z-score
TCATGTCTGTGTCACAGACTGTGCTAG	-0.25 z-score
GACTGACTGCTTCTCCTGACGTGCTAG	0.268 z-score
TTAGATTTCGGATTTCGATTAGTGCTA	1 z-score
GACGGTTTCGACTATCGGTACGTGCTA	8.36 z-score
TTAGGTATCGGGTATCGGTTTGTGCTA	7.03 z-score
TTAGGACTGGGTATCTGTTAGTGCTAG	0.479 z-score
GACAGTTTCGGTCTCGGGACGTGCTAG	14.4 z-score
TTAGGTCTCCTACTGCTTTTGTGCTAG	0.143 z-score
GACGGTATCGGGCTTCGGGACGTGCTA	2.69 z-score
ACGAGTTTCTATTTTCTGAAGTGCTAG	4.84 z-score
TTAGGTTTCGACTTTTGGTTAGTGCTA	7.65 z-score
TTAGAACTAGGGACTGGATTAGTGCTA	-0.278 z-score

Sample 4
Target: RNA binding protein fox-1 homolog 2, RRM domain, GST-SBP tag (RBFOX2, Homo sapiens, UniProt O43251-10, residues 100-194)
Method: RNA Bind-n-Seq
Molecule type: RNA
Medium: in vitro
Tested at: 365 nM
Setting: natural RNA segment, single round, ends assumed
Reference: no-protein control
Direction: higher = stronger binding
Residues (chain): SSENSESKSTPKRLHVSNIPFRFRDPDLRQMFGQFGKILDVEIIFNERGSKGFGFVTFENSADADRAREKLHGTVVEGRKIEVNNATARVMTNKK
Strand	RBNS enrichment (R)
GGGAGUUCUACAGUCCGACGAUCUGCUCUCUGUUUCCAGUGAUUAAACACCCAUAACCAACGUUGCUGUCUGCUGCCACUGACAGUCCAGUGAAUCCUUUUCUGUCUGUUCCUAACAACUUUUAUUUGACACAUGGAAUUCUCGGGUGCCAA	0.541
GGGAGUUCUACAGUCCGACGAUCUGGCCAGCUGAGCCCAGGUUACUUGGUACCCACUCUGCCUUGAGCCUUCCUUCCCCCAGGGCCUAUUUCUUGUGUGGAUCACGUGGCAGUAGCAUGUUGCAGUCAGACGUUGGAAUUCUCGGGUGCCAA	4.87
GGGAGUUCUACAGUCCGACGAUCUUCAUAAUUCAGAAGUAAACCUUUCAUAGGAAAAAUACUGAGCUGUGCUAAUGUAGCUGAUUUUAGUCUCCUUGUCCCACUUACACUAUGCAGUAUCUCCUAACUUCAGUUGGAAUUCUCGGGUGCCAA	0.286
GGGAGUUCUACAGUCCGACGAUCUAGUUUACUAAUAGCUGCUCAGUUUGUCAGCUGAUAGUCUGAAUACUAUCAAAAACUAAGAACAUAGUUGAAGCAUGCUUCCUGAAAAUUAACUACAUUAGAAACUGACAUGGAAUUCUCGGGUGCCAA	1.7
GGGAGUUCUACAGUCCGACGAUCAAACCACAGAACAGUUUGUGAUUUCUAUUGCUGUAGCUAGGUAUCUUACUCUGUCCACUCUUGUUCAAGUAUCUAACUCUUCUGGAAACCAAAUAGGCUUUAGAAGAGAUUGGAAUUCUCGGGUGCCAA	0.376
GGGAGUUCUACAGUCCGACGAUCCCUCCCUAACUGGGCCCCGCUGGUCCCAUUUGCUCAUUAGAAUUUCCUCUCACAUCAGUGGGAUACAGAAUUCAGUUUCUCCCUUGCCAGGUCCUUGGGAUGGUUGACCCUGGAAUUCUCGGGUGCCAA	0.416
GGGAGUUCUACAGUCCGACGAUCAUUUAAGUUCCUGCUGCCUGGGUAGGCCCCACAAGGCCUGGUCUGGGAGUAUACGGAAACAAAAAUGAUCCUCAGUGCAAAAUGUCUUGUGUAUUUCUCUGUGAAUCCAUUGGAAUUCUCGGGUGCCAA	0.387
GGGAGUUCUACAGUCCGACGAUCACUGUGUCUUUUUUCAUCUUUGUAUCUUUCAUGCACCUAGCAUAGUGCUUUGCACAUAGUAGUCACUCAGUGUUUGUUAAAUAAAGCUAUUAGUGUCAUUAAAAUUCAAAUGGAAUUCUCGGGUGCCAA	0.905
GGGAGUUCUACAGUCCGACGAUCCUGCAGCACAGAGGGAAAUCUGCCGGGCAUCAAAUAUCUGUGUCCCCCAUAAUCCUAAUAAUAAAUCUAUUUUUCAUUCAGUUGUUAAACGUUGGAUUUUCGUACACUUCUGGAAUUCUCGGGUGCCAA	1.48
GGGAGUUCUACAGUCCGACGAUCGCCAAGAGUUCUUUAGGUGCCUCCUGUCUUAUGGCGUUGCAGGCCAGGUUAUGCCUCAUGCUGACUUGCAGAGUUCAUGGAAUGUAACUAUAUCAUCCUUUAUCCCUGAGUGGAAUUCUCGGGUGCCAA	0.998
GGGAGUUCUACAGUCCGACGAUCCUCUGUGUUAAUACUGCUUCACAAUUCUGAAUGGCUGUGUUCUCUUAAAUAAAUGCAUUCAAAGAAACGUGUGGUGGUAGCAUUACAAAUGUAGGUGGCUUUCUUCCUUCUGGAAUUCUCGGGUGCCAA	0.445
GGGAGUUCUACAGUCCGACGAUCUUGGCUCAGAUUUAUUCUUAAUUGGAUGUUUAAAGCAUGUACUACCUUGUUACAGUUGGUUUAGUGUAGUGGAUUAUUGACAUGACAUCAUGAGAAGAUGUGUAAUUUUAUGGAAUUCUCGGGUGCCAA	9.41

For quick reference, copied from above (sample 3):
Strand	fitted relative affinity
CCAAGTCTTGTTTTACAATTGTGCTAG	0.385 z-score
TTAGATTTCGGATTTCGATTAGTGCTA	1 z-score
TTAGACATCAGTTTCGATTAGTGCTAG	7.67 z-score
TTAGGTATCCTGATCCTTTAGTGCTAG	-0.553 z-score
TCAGAATTGAAAATTAGTACTGTGCTA	-0.568 z-score
TTAGATATCAGTATCGATTTGTGCTAG	4.14 z-score
TTAGGTTTCGACTTTTGGTTAGTGCTA	7.65 z-score
GGTGCTCTGCAGCTCAGGCAGTGCTAG	-1.05 z-score
GACTGACTGCTTCTCCTGACGTGCTAG	0.268 z-score
TTAGAACTAGGGACTGGATTAGTGCTA	-0.278 z-score
GACGGTATCGGGCTTCGGGACGTGCTA	2.69 z-score
